Published values from different studies.
Numbered parts are unrelated; each lists some results of a single study.

Study 1 — method: RNA Bind-n-Seq; molecule type: RNA; medium: in vitro; concentration: 200 nM; setting: whole 134-nt RNA, ends assumed; together with: 150 mM LiCl; reference: input library; reading: higher = stronger binding; each molecule: 7-deaza-guanosine replaces G
Target: Fragile X messenger ribonucleoprotein 1, C-terminal low-complexity region (Fmr1, Mus musculus, UniProt P35922)
Constant ends, left off below: GGGAGUUCUACAGUCCGACGAUC … UGGAAUUCUCGGGUGUCAAGG
With `UCAAGUCCUGUGCUACACAUCGUAUGUACCGAAUCGGGGAAAGGGAAAGGAAAGGAAAGUAUUAUGUUACGCCGUUCGGAUCUGCACUUC` the log2 enrichment was -1.15.
For `AGUCCUGUGCUACACAUCGUAUGUACCGAAUCGGGGUUUUGGUUUUGGGUUUUGGGGAAAGUAUUAUGUUACGCCGUUCGGAUCUGCACU`, the log2 enrichment was -1.51.
The log2 enrichment of `CAAGUCCUGUGCUACACAUCGUAUGUACCGAAUCGGCCCCGGCCCCGGCCCCGGGAAAGUAUUAUGUUACGCCGUUCGGAUCUGCACUUC` is reported as -0.269.
`AGUCCUGUGCUACACAUCGUAUGUACCGAAUCAAAUUUUUUUAAAUUUAAACCCAAAAAAGUAUUAUGUUACGCCGUUCGGAUCUGCACU` has a log2 enrichment of -1.09.
With `UUGCAUUUCGAACGCGUUCUAAGAUGCCCCUGAAAGAUGUUCCCCUGGGCCAAUUAGAGGCAGAGCUCCAAGCUCCAGACAUCACUCCAG` the log2 enrichment was 1.05.
`AGUCCUGUGCUACACAUCGUAUGUACCGAAUCGGGUUUUUGGGUUUGGGUUUUUGGGAAAGUAUUAUGUUACGCCGUUCGGAUCUGCACU` gave a log2 enrichment of -1.9.
The log2 enrichment of `UCCUGUGCUACACAUCGUAUGUACCGAAUCGGCCCCCCGGCCCCCCGGGCCCCCCGGGGAAAGUAUUAUGUUACGCCGUUCGGAUCUGCA` is reported as 0.776.
The log2 enrichment of `UGGGAGGUGGAUUUUGUUUAUUUUUUUAGCUCAUCUCCAGGGGUGGGAAUUUUUUUUUAAUAUGUGUCAUGAAUAAAGUUGUUUUUGAAA` is reported as -0.0716.

Study 2 — method: protein-binding microarray; molecule type: double-stranded DNA, one strand shown; medium: in vitro; concentration: 250 nM; setting: 60-bp whole probe; together with: salmon DNA 0.4 mg/ml; reference: random background probes; reading: higher = stronger binding; constant ends, left off below: GCCTAGCAC … GTCTTGATTCGCTTGACGCTGCTG
Target: Interferon regulatory factor 5, full length, phosphomimetic (IRF5, Homo sapiens, UniProt Q13568-2, residues 1-514, K96S/S451D/S453D/S456D/S462D)
With `TTAGGATTCGACACTGGGTTAGTGCTA` the log fluorescence was 0.0102 z-score.
The log fluorescence of `TCATCTTATCCTATCAGACTGTGCTAG` is reported as 0.272 z-score.
`GATGGTTTCGGACTGGGGACGTGCTAG` has a log fluorescence of 4.7 z-score.
The log fluorescence of `TCAATTTTGTTCATCATACTGTGCTAG` is reported as 1.08 z-score.
`TGTAATGATGTAGGCAAATGGTGCTAG` has a log fluorescence of 0.0558 z-score.
The log fluorescence of `TTAGGACTGCACTTTCGGTTAGTGCTA` is reported as 9.49 z-score.
For `GACGGTATCCTTATCGTGACGTGCTAG`, the log fluorescence was 0.0658 z-score.
The log fluorescence of `GACGATATCGGGTTTCGAGGCGTGCTA` is reported as 3.04 z-score.

Study 3 — action: inhibitor; concentration: 20 µM
Target: Replicase polyprotein 1ab, nsp13 helicase (rep, Severe acute respiratory syndrome coronavirus 2, UniProt P0DTD1)
`Cc1ccccc1C(=O)c1ccc(Nc2ccc(Br)cc2N)cc1Cl` gave an inhibition of 6.33%.
`Cc1c(C)c2c(c(C)c1O)CCC(C)(C(=O)O)O2` (stereo not shown) has an inhibition of 2.01%.
For `CCc1nc(C)ccc1O`, the inhibition was 4.93%.
The inhibition of `CCc1nc2ccc(Cl)cn2c1C(=O)NCc1ccc(N2CCC(c3ccc(OC(F)(F)F)cc3)CC2)cc1` is reported as 0.66%.
The inhibition of `Cc1cc2c(N3CCCC3)nc(N3CCCC3)nc2n1C` is reported as 12.4%.
`O=c1cc(-c2ccc(O)c(O)c2)oc2cc(O)cc(O)c12` gave an inhibition of 38.6%.
For `O=C1Nc2ccc(I)cc2/C1=C/c1cc(Br)c(O)c(Br)c1`, the inhibition was 14.1%.
The inhibition of `C[C@@H](O[C@H]1OCCN(Cc2nn(P(=O)(O)O)c(=O)[nH]2)[C@H]1c1ccc(F)cc1)c1cc(C(F)(F)F)cc(C(F)(F)F)c1` is reported as 8.36%.
`OC[C@H]1NC[C@@H](O)[C@@H](O)[C@@H]1O` has an inhibition of 8.31%.
`Nc1nc(F)nc2c1ncn2[C@@H]1O[C@H](CO)[C@@H](O)[C@@H]1O` gave an inhibition of 2.42%.
`COC(=O)C[C@](O)(CCCC(C)(C)O)C(=O)O[C@@H]1C(OC)=C[C@]23CCCN2CCc2cc4c(cc2[C@H]13)OCO4` gave an inhibition of 3.64%.
For `CO[C@@H](C)Cn1c(=O)n(C)c2cnc3ccc(-c4cncc(C(C)(C)O)c4)cc3c21`, the inhibition was 1.43%.
`Cc1sc(N)c(C(=O)c2cccc(C(F)(F)F)c2)c1C` gave an inhibition of 0.74%.
`CCOc1ccc(C[C@H]2NC(=O)CCSSC[C@@H](C(=O)N3CCC[C@H]3C(=O)N[C@@H](CCCN)C(=O)NCC(N)=O)NC(=O)[C@H](CC(N)=O)NC(=O)[C@H]([C@@H](C)O)NC(=O)[C@H]([C@@H](C)CC)NC2=O)cc1` has an inhibition of 3.56%.
With `Nc1ccc(S(=O)(=O)NC(=O)c2ccccc2)cc1` the inhibition was 0.77%.
With `C[C@@H](Oc1cc(-n2cnc3ccc(CN4CCN(C)CC4)cc32)sc1C(N)=O)c1ccccc1C(F)(F)F` the inhibition was 72.4%.
`O=C(Nc1ccc(F)cc1)N1CCc2ccccc2C1c1ccc(C(F)(F)F)cc1` (stereo not shown) has an inhibition of -1.41%.
`CC(C)NC(=O)c1ccc(C#Cc2ccncc2)cn1` gave an inhibition of 4.92%.
`Cn1c(CNc2ccc(C(=N)N)cc2)nc2cc(C(=O)N(CCC(=O)O)c3ccccn3)ccc21` has an inhibition of 11.7%.
`COc1c(C)cnc(Cn2cc(C#CCC(C)(C)O)c3c(Cl)nc(N)nc32)c1C` has an inhibition of 4.45%.
The inhibition of `CC(=O)N[C@H](Cc1ccc2ccccc2c1)C(=O)N[C@H](Cc1ccc(Cl)cc1)C(=O)N[C@H](Cc1cccnc1)C(=O)N[C@@H](CO)C(=O)N[C@@H](Cc1ccc(NC(=O)[C@@H]2CC(=O)NC(=O)N2)cc1)C(=O)N[C@H](Cc1ccc(NC(N)=O)cc1)C(=O)N[C@@H](CC(C)C)C(=O)N[C@@H](CCCCNC(C)C)C(=O)N1CCC[C@H]1C(=O)N[C@H](C)C(N)=O` is reported as 51.7%.
`Nc1ncn([C@@H]2O[C@H](CO)[C@@H](O)[C@H]2O)c(=O)n1` gave an inhibition of -0.35%.
The inhibition of `CC[C@H](C)[C@@H]1NC(=O)[C@H](Cc2ccc(O)cc2)NC(=O)[C@@H](N)CSSC[C@@H](C(=O)N2CCC[C@H]2C(=O)N[C@@H](CC(C)C)C(=O)NCC(N)=O)NC(=O)[C@H](CC(N)=O)NC(=O)[C@H](CCC(N)=O)NC1=O` is reported as -0.68%.
The inhibition of `c1ccc(CCNc2nc(-c3ccccc3)cs2)cc1` is reported as 5.31%.
With `COc1cnc(-n2cnc(C)n2)c2[nH]cc(C(=O)C(=O)N3CCN(C(=O)c4ccccc4)CC3)c12` the inhibition was 0.6%.

Study 4 — cell line: HEK-293T; effect on: pseudovirus infection; method: FDA-approved drug library screen; organism: VSV pseudotyped with SARS-CoV-2 spike; concentration: 10 µM; time: 16 h; reference: vehicle-treated
With `O=C(O)c1ccc(-n2nc(-c3ccccc3O)nc2-c2ccccc2O)cc1` the GFP-positive cells was 72.6%.
With `COc1ccc2c(c1)c(CC(=O)O)c(C)n2C(=O)c1ccc(Cl)cc1` the GFP-positive cells was 108%.
The GFP-positive cells of `NC(=O)N1c2ccccc2CC(=O)c2ccccc21` is reported as 82.6%.

Study 5 — method: competition protein-binding microarray; molecule type: double-stranded DNA, one strand shown; medium: in vitro; concentration: 2 µM; together with: Pho4 competitor, 0.05 µM; reading: higher = stronger binding; constant ends, left off below: … GTCTTGATTCGCTTGACGCTGCTG
Target: Centromere-binding protein 1, full length, His-tagged (CBF1, Saccharomyces cerevisiae, UniProt P17106, residues 1-351)
Chain of UniProt P17106 (whole entry, looked up): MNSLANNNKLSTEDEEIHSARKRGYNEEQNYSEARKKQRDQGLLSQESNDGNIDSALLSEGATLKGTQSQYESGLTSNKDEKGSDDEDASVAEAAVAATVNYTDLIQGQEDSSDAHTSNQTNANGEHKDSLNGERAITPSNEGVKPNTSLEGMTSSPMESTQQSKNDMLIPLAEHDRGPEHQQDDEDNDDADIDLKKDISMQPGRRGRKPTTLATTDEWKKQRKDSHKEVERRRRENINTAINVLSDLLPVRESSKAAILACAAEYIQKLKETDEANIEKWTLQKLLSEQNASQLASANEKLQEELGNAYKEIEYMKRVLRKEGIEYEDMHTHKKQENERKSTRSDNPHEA
Setting: whole 60-bp probe, lowest competitor level
`CGGGGTTAAGTTTTTCACGTGCCATGCTTGCAGCAG` gave a fluorescence intensity of 1010 a.u.
For `CGGGGTTAAGTTTTTCACGTGAATTGCTTGCAGCAG`, the fluorescence intensity was 628 a.u.
`TTGCGCTGCCCAATCCACGTGGAACAATCCTGTTCA` gave a fluorescence intensity of 440 a.u.
For `GAGACGGACGAGAGTGACGTGCTTTGGGTTGAGACG`, the fluorescence intensity was 76.1 a.u.
The fluorescence intensity of `AAATTACTAAGTTGCTTTGTGGGTGACGCCGTATGA` is reported as 73.5 a.u.
With `CTTCTGTAAATTTGGAGGGTGGGTGGACGCGCCCCG` the fluorescence intensity was 73.6 a.u.
The fluorescence intensity of `CATTGCGAGGGTACATCCGTGCAATATTTCTGAAAA` is reported as 71.3 a.u.
With `AAGCTCAATTCGAGTCACGTGGGTAGAAATATTACA` the fluorescence intensity was 13900 a.u.

Study 6 — organism: SARS-CoV-2; effect on: cytopathic effect; cells: Vero E6; concentration: 10 µM
`C[C@@H]1O[C@@H](O[C@@H]2[C@@H](O)[C@H](OCCc3ccc(O)c(O)c3)O[C@H](CO)[C@H]2OC(=O)/C=C/c2ccc(O)c(O)c2)[C@H](O)[C@H](O)[C@H]1O` gave an inhibition of -5.7%.
`O=C1C(=Cc2cccnc2)C(=O)c2ccccc21` gave an inhibition of 30.5%.
`Sc1nnc(Nc2ccccc2)s1` has an inhibition of 2.6%.

Some of these lines once more (study 5):
The fluorescence intensity of `AAATTACTAAGTTGCTTTGTGGGTGACGCCGTATGA` is reported as 73.5 a.u.
The fluorescence intensity of `CATTGCGAGGGTACATCCGTGCAATATTTCTGAAAA` is reported as 71.3 a.u.
`CGGGGTTAAGTTTTTCACGTGCCATGCTTGCAGCAG` gave a fluorescence intensity of 1010 a.u.
For `CGGGGTTAAGTTTTTCACGTGAATTGCTTGCAGCAG`, the fluorescence intensity was 628 a.u.
With `AAGCTCAATTCGAGTCACGTGGGTAGAAATATTACA` the fluorescence intensity was 13900 a.u.
